Measurements collected from several papers.
Each numbered part is a random draw from the data of one study; scales do not carry over between parts. Substitutions count along the parent as printed.

Sample 1
Target: Histone acetyltransferase KAT6A, both winged helices, GST fusion (KAT6A, Homo sapiens, UniProt Q92794, residues 1-181)
Technique: protein binding microarray
Molecule type: double-stranded DNA, one strand shown
Sample: in vitro
Concentration: not given
Setting: 8-mer, flanks averaged, mean of 2 arrays, mostly near background
Baseline: not given
Direction: higher = stronger binding
Construct (chain): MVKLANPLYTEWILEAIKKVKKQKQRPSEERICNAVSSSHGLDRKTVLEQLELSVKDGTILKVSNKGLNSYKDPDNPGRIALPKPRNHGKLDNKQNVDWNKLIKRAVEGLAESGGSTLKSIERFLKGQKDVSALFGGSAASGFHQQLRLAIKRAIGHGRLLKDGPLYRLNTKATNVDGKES
Oligonucleotide | E-score
GGTGGTTA | 0.008
CCAACGGA | 0.154
GCCTCACC | -0.00256
ATGCTTGG | -0.0883
TACTAAGA | 0.00547
ACGAAGAT | -0.0374
GATCCTGC | -0.0825
CTACACAG | -0.0961
AGACGATG | 0.0207
ACAGGCGT | -0.0431
TGTATCAA | -0.0465
CACCAGCG | 0.0675

Sample 2
Target: Ras GTPase-activating protein-binding protein 1, RRM domain (G3BP1, Homo sapiens, UniProt Q13283)
Chain of UniProt Q13283 (whole entry, looked up): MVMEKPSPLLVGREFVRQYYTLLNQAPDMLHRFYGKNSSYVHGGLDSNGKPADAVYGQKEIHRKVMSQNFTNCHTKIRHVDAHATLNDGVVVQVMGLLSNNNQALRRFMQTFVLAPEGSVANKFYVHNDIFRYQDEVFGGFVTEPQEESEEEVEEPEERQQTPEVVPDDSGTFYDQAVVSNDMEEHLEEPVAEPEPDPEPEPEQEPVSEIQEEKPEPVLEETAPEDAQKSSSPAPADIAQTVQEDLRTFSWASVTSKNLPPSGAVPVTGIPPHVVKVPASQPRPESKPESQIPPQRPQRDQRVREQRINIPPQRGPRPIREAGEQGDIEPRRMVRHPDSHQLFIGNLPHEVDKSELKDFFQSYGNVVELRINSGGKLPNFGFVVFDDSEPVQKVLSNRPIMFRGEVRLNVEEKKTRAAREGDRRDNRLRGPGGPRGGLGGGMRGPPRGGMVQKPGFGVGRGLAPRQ
Technique: RNA Bind-n-Seq
Molecule type: RNA
Sample: in vitro
Concentration: 1 µM
Setting: whole 134-nt RNA, ends assumed
With: 150 mM KCl
Baseline: input library
Direction: higher = stronger binding
Shared flanks, not repeated: GGGAGUUCUACAGUCCGACGAUC … UGGAAUUCUCGGGUGUCAAGG
Oligonucleotide | log2 enrichment
UGGUGUUCAUAUUGCUGAUGUGAGCCAUUUUAUUAGGCCAGGAAAUGCCUUGGAUCAAGAAUCAGCCAGAAGAGGAACAACUGUGUAUCU | -0.178
UAACUUUUGAGGAGGAUCUGAUGGAUAUGGCAGUGGACGUGGAUUUGGGGAUGGCUAUAAUGGGUAUGGAGGAGGACCUGGAGGUGGCAA | -0.718
GCAGGAAGUAAAAACAAAUGGAAAUGCUUCGGAUAGUGGCAGAGGUGGGGGUUGCUAAGGAAAGGGUGGGAUGGGAGUGGGUAAAGAGUU | 0.987
AGUCCUGUGCUACACAUCGUAUGUACCGAAUCGGGGUUUUGGGUUUUGGGUUUUGGGGAAAGUAUUAUGUUACGCCGUUCGGAUCUGCAC | 0.417
UAACUUUAGAGUAGGAUCUGAUGGAUAUGGCAGUGGACGUGGAUUUGGGGAUGGCUAUAAUGGGUAUGGAGGAGGACCUGGAGGUGGCAA | -0.893
GCAGGAAGUAAAAACAAAUGGAAAUGCUUCGGAUAGUGGCACGGGUGGGGGUUGCUAAGGAAAGGGUGGGAUGGGAGUGGGUAAAGAGUU | 0.949
CACAGACAACACGCACCCACACAGAAAAAGAGGGAAGGGGUUGGGAUGGGGACAGGGUGCACAGCAGGGCGGGGUAGGACCCCAGCCCCU | -0.252
AAGUCCUGUGCUACACAUCGUAUGUACCGAAUCGGGGAAAGGGGAAAGGGGAGGGGAAAGUAUUAUGUUACGCCGUUCGGAUCUGCACUU | 1.25
GCUGUUGGAGUGGAUCCGCCGCACAAUCCCGUGGCUGGAGAACCGGGUGCCCGAGAACACCAUGCAUGCCAUGCAACAGAAGCUGGAGGA | -0.225
UGUCUGGUGACAAGGAAGAGGAUGCUCCUCAUAGAGAAGAUUACUUUGAGCCCAUUUCUCCUGAUCGGAAUUCUGUUCCCCAGGAAGGGC | -0.351
UGGAGCCCAACCUGUGCCGCUCAGUCCUCAUUGCCAACACGGUCCGGCAGAUCCAAGAGGAGAUGACGCAGGAUGGGACGUGGCGCACAG | -0.527
CUCAAGUCCUGUGCUACACAUCGUAUGUACCGAAUCGGUUUGGUUUGGUUUGGGAAAGUAUUAUGUUACGCCGUUCGGAUCUGCACUUCC | -0.291

Sample 3
Target: CCNE1, cyclin fold, Cln2 fusion (human)
Technique: yeast growth competition, sequencing
Sample: yeast
Setting: strong parent motif
Baseline: not given
Direction: higher = stronger binding
Parent: CDKN1B docking peptide (human); PSACRNLFGPVDH; partner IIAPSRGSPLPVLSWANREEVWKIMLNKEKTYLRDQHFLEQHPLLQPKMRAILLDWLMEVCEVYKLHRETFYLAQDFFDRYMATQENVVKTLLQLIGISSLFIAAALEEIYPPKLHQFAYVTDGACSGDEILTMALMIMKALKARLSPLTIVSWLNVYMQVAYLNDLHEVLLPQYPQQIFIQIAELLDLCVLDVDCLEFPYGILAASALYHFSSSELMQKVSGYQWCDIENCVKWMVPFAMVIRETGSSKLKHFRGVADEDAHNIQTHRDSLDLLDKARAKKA
Variant | normalised enrichment score
F8S | 0.22
A3P | 1.4
S2Y | 1.02
D12F | 2.35
D12K | 2.5
V11W | 4.97
P10E | 3.1
N6M | 3.09
V11I | 2.96
A3G | 0.767
A3S | 0.744
G9Y | 1.21
S2V | 1.74
L7A | 0.359
F8W | 2.23

Sample 4
Target: ABI1, truncated, D143A, DHFR fusion (Arabidopsis thaliana)
Technique: DHFR PCA, deep sequencing
Sample: yeast
Setting: methotrexate growth selection, single substitutions
With: (+)-ABA 1.4 µM
Baseline: wild-type fitted maximum
Direction: higher = stronger binding
Parent: PYL1, truncated, DHFR fusion (Arabidopsis thaliana); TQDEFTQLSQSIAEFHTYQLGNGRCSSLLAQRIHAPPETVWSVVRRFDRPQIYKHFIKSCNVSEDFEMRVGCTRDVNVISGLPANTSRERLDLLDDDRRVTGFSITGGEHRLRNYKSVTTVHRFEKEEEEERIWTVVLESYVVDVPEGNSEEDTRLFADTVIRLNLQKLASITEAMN; partner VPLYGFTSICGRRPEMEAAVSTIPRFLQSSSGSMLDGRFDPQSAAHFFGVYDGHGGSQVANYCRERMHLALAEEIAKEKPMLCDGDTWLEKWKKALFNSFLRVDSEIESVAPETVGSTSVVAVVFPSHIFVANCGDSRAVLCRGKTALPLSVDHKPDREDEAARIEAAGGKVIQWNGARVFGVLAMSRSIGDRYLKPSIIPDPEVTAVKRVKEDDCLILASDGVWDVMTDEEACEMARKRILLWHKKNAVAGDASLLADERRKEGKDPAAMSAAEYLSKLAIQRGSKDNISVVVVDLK
Variant | relative binding score
G21K | 48.2%
E139G | -6.84%
V76R | -10.2%
S171Q | 68.4%
V142E | 39.1%
L94D | -1.54%
I105K | -5.4%
E128K | 47.7%
R32V | 66.5%
K58R | 54.1%
A158R | 2.56%
E125G | 60%
V118F | -3.34%
T106L | 71.8%
T1G | 60.7%

Sample 5
Target: PABPC1L2, full length, GST fusion (mouse, UniProt A0ABA7IW68)
Technique: RNAcompete
Molecule type: RNA
Sample: in vitro
Concentration: 20 nM
Setting: 7-mer, probes averaged, single round
Baseline: mean of 7-mers
Direction: higher = stronger binding
Target sequence (chain): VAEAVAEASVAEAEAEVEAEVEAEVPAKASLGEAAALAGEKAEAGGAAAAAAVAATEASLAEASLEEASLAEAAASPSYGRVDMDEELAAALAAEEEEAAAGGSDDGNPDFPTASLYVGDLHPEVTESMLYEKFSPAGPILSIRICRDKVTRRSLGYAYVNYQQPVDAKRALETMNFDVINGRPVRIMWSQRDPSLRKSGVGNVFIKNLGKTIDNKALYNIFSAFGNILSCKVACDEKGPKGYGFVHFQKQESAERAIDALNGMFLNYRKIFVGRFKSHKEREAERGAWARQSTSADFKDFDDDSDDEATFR
Oligonucleotide | 7-mer Z-score
AGACUCA | -0.208
UAGGAAU | -0.0718
CUGAAGA | -0.126
UUCAGAA | 0.0297
CCCAUUC | -0.336
UGUCUAA | -0.0881
GGCAGCU | 0.0968
AGAUAAA | 1.94
CCUCAUG | -0.358
GCCCACU | -0.213
CGCCCCA | -0.438
GUAUUAU | -0.195
CGCCCUC | -0.421
GGCACCU | -0.146

Sample 6
Target: Interferon regulatory factor 3, full length, phosphomimetic (IRF3, Homo sapiens, UniProt Q14653, residues 1-427, S386D/S396D/S398D/S402D/T404D/S405D)
Technique: protein-binding microarray
Molecule type: double-stranded DNA, one strand shown
Sample: in vitro
Concentration: 2540 nM top
Setting: 60-bp whole probe
With: salmon DNA 0.4 mg/ml
Baseline: random background probes
Direction: higher = stronger binding
Shared flanks, not repeated: GCCTAGCAC … GTCTTGATTCGCTTGACGCTGCTG
Residues (chain): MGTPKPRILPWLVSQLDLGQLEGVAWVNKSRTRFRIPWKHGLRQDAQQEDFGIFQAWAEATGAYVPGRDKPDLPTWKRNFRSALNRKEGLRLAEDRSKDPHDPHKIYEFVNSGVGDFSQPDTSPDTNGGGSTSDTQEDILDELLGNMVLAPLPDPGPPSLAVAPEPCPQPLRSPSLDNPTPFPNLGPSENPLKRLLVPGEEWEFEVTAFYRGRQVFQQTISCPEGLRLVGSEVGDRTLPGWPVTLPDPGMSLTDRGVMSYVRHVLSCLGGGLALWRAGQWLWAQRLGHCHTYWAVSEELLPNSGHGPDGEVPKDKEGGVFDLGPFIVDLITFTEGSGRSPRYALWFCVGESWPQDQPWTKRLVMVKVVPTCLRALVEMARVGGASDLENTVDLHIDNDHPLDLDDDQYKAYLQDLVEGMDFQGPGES
Oligonucleotide | fitted relative affinity [z-score]
GACGGTATCGACTTTCAGGACGTGCTA | 1.24
GACGATATTAGACTGGAGACGTGCTAG | -0.0684
GACGTACTGGGGTATCGAGACGTGCTA | -0.513
ATAGGTTTCGGGACTGGGTTAGTGCTA | 4.48
GACGGACTGGGTATCGGTACGTGCTAG | 0.464
GACGAACTGAGACTGGAGACGTGCTAG | -0.199
GACGGTATCCCTCTCCTGACGTGCTAG | 5.19
TTCATTTTCTGAATGTCCTCGTGCTAG | 2.34
TTAGGTCTCGGGTTTCGGTTAGTGCTA | 2.57
TTAGAACTGGGGTTTCGATGAGTGCTA | 0.119
TTAGGTATCCGGACTGGGTTAGTGCTA | 2.1
GACGGTTTCGACTTTCGGAACGTGCTA | 4.61
CCAATTCTTTTTATGCTTTCGTGCTAG | 1.85
TTCGGTATCGACTTTCGGTTAGTGCTA | 2.49

Excerpt of the above (sample 6):
Oligonucleotide | fitted relative affinity [z-score]
TTCATTTTCTGAATGTCCTCGTGCTAG | 2.34
ATAGGTTTCGGGACTGGGTTAGTGCTA | 4.48
GACGGTATCCCTCTCCTGACGTGCTAG | 5.19
GACGGACTGGGTATCGGTACGTGCTAG | 0.464
GACGAACTGAGACTGGAGACGTGCTAG | -0.199
